Published values from different studies.
± marks the error that the study gave. Values after ≈ are worked out from the molar mass of the structure shown.

Molecule = CC(C)=CCC/C(C)=C/Cc1c(O)cc(/C=C/c2cc(O)c3c(c2)C[C@@H]2C(C)(C)[C@H](O)[C@H](O)C[C@@]2(C)O3)cc1O; cell line = CHO NPC1-/- (M12); setting = concentration not given; how to read = baseline: wild-type CHO; quantity = antiproliferative activity change; result = no effect
Molecule = N.N.[Cl][Pt][Cl]; cell line = human PBMC; test = cytotoxicity; how to read = baseline: PBMC over Jurkat toxicity; quantity = selectivity ratio; result = 70
Molecule = C[C@H]1O[C@@H](O[C@H]2[C@@H](O)C[C@H](O[C@H]3[C@@H](O)C[C@H](O[C@H]4CC[C@@]5(C)[C@H](CC[C@@H]6[C@@H]5C[C@@H](O)[C@]5(C)[C@@H](C7=CC(=O)OC7)CC[C@]65O)C4)O[C@@H]3C)O[C@@H]2C)C[C@H](O)[C@@H]1O; cell line = NIH3T3 in HEY/NIH microtissues; test = fibroblast toxicity; setting = 168 h, chronic toxicity, unit not given; how to read = baseline: AC50 ATP over AC50 NanoLUC, day 7; quantity = therapeutic window; result = 0.449
Molecule = leucinostatin A2; cell line = MDA-MB-231 resistant; test = sulforhodamine B; setting = 48 h; quantity = GI50; result = > 100 nM
Molecule = COc1ccc([N+](=O)[O-])c(S(=O)(=O)c2ccc(Cl)cc2)n1; cell line = NCI60 cell panel; test = cell growth; setting = panel mean; quantity = GI50; result = 6310 nM
Molecule = leucinostatin F; cell line = SUM185PE; test = sulforhodamine B; setting = 48 h, LAR subtype TNBC; quantity = GI50; result = 2 ± 0.2 nM
Molecule = C[C@@H]1C[C@H]2[C@@H]3CCC4=CC(=O)C=C[C@]4(C)[C@@]3(F)[C@@H](O)C[C@]2(C)[C@@]1(O)C(=O)CO; cell line = mouse splenocytes; test = IL-5 production, ELISA; setting = 0.005 µM, added: ovalbumin; how to read = baseline: OVA-stimulated control; quantity = inhibition; result = > 80%
Molecule = CC[C@H](C)[C@H](NC(=O)[C@H](CCCNC(=N)N)NC(=O)[C@H](CCCNC(=N)N)NC(=O)[C@@H]1CCCN1C(=O)[C@@H]1CCCN1C(=O)[C@H](CCCNC(=N)N)NC(=O)[C@@H]1CCCN1C(=O)[C@H](CCCNC(=N)N)NC(=O)[C@@H]1CCCN1C(=O)[C@H](CC(C)C)NC(=O)[C@H](Cc1ccc(O)cc1)NC(=O)[C@@H]1CCCN1C(=O)[C@@H]1CCCN1C(=O)[C@H](CCCCN)NC(=O)[C@H](CC(=O)O)NC(=O)[C@@H](N)C(C)C)C(=O)N[C@@H](Cc1ccc(O)cc1)C(=O)N[C@@H](CC(N)=O)C(=O)N[C@@H](CCCNC(=N)N)C(N)=O; cell line = Escherichia coli T7 Express LysY/I; test = SAMP-Dep deep sequencing; setting = concentration not given, 7.2 h, 37 °C, intracellularly expressed mutants, added: IPTG; how to read = more negative = more active; quantity = growth-induction slope; result = -12 ± 2 M⁻¹ min⁻¹
Molecule = amyloid beta-42 Met35-sulfone; cell line = rat primary hippocampal neurons; test = MTT; setting = 10 µM, 48 h; how to read = baseline: medium control; quantity = viability decrease; result = 43 ± 2%
Molecule = CC(C)c1ccc2c(c1)CC[C@H]1[C@](C)(CN)CCC[C@]21C; cell line = WM35; test = cell growth or viability, MTS; setting = 48 h; quantity = IC50; result = 4830 nM
Molecule = CC(=O)SCC(Cc1ccccc1)C(=O)NCC(=O)OCc1ccccc1 (centres unmarked); cell line = U2OS; test = NAADP-evoked Ca2+ release; setting = 10 µM, 10 min pretreatment, added: NAADP 100 nM microinjected; how to read = baseline: NAADP alone; quantity = Ca2+ transient amplitude; result = 16.6 ± 10%
Molecule = C=CCN=C=S; cell line = rat DRG neurons; test = intracellular calcium rise; setting = 50 µM; quantity = responding neurons; result = 24.4%
Molecule = O=C1C=Cc2ccccc2C1=O; cell line = A-431; test = PTP activity, single-cell capillary electrophoresis; setting = 50 µM, 60 s, median; quantity = remaining phosphorylation; result = 41%
Molecule = NC12CC3CC(CC(C3)C1)C2; cell line = dendritic cells; test = flow cytometry; setting = 10 µg/mL, 24 h; how to read = baseline: untreated cells; quantity = TNF-alpha expression; result = increased
Molecule = O=C1NC(=S)NC(=O)C1=Cc1cn(Cc2ccc3ccccc3c2)c2ccc(Cl)cc12; cell line = HAP1 hpol η-proficient; test = immunoblot; setting = 0.1 or 1 µM, added: cisplatin 0.5 µM; how to read = baseline: DMSO; quantity = γH2AX level; result = ~3 fold
Molecule = COc1ccc2[nH]cc(CCNc3nccc(Nc4cccc5c4ccn5C)n3)c2c1; cell line = ECFC and ADSC co-culture; test = endothelial tube formation; setting = highest concentration tested; how to read = baseline: VEGF 20 ng/mL; quantity = maximal cord disruption; result = > 96%
Molecule = lead; cell line = U-251 overexpressing EphA2; test = cell viability; how to read = baseline: wild type over overexpressing; quantity = selectivity ratio; result = 2.5 ± 2.44
Molecule = CN1C(=CC=CC=CC2=[N+](CCCCCC(=O)NCCCC[C@H](NC(=O)[C@H](CCCCNC(=O)COCCOCCOCCNC(=O)[C@H](Cc3ccccc3)NC(=O)[C@H](CCCNC(=N)N)NC(=O)[C@@H]3CCCN3C(=O)[C@H](CC(N)=O)NC(=O)[C@@H]3CCCN3C(=O)[C@H](CO)NC(=O)[C@@H](N)CCCCN)NC(=O)COCCOCCOCCNC(=O)[C@H](CCC(=O)O)NC(=O)[C@H](CCCNC(=N)N)NC(=O)[C@@H]3CCCN3C(=O)[C@H](CCCCN)NC(=O)[C@H](Cc3c[nH]cn3)NC(=O)[C@H](CCCNC(=N)N)NC(=O)[C@@H](N)CCC(N)=O)C(N)=O)c3ccc4ccccc4c3C2(C)C)C(C)(C)c2c1ccc1ccccc21; cell line = OE33; test = flow cytometry; setting = 1 µM, 4 °C; quantity = association rate constant; result = 0.22 min⁻¹
Molecule = astressin; cell line = rat hippocampal pyramidal neurons; test = antagonist, refers to: pCREB Ser133; setting = 100 nM, 30 min pretreatment, added: urocortin 40 nM, 15 min; quantity = UCN-induced CREB phosphorylation; result = inhibited
Molecule = leucinostatin D; cell line = SUM185PE; test = sulforhodamine B; setting = 48 h, LAR subtype TNBC; quantity = GI50; result = 1.4 ± 0.2 nM
Molecule = antisauvagine-30; cell line = rat hippocampal pyramidal neurons; test = refers to: pCREB Ser133; setting = 100 nM, 30 min pretreatment, added: urocortin 40 nM, 15 min; quantity = UCN-induced CREB phosphorylation; result = no effect
Molecule = CC1(C)C(=O)N(CCN2CCC(C(=O)c3ccc(F)cc3)CC2)c2ccccc21.Cl; cell line = U2OS; test = NAADP-evoked Ca2+ release; setting = 10 µM, 10 min pretreatment, added: NAADP 100 nM microinjected; how to read = baseline: NAADP alone; quantity = Ca2+ transient amplitude; result = 42.9 ± 5.1%
Molecule = O=c1c(O)c(-c2ccc(O)c(O)c2)oc2c1ccc1ccccc12; cell line = mouse cortical neurons; setting = 100 nM, added: glutamate; quantity = neuroprotection; result = 86%
Molecule = leucinostatin B2; cell line = SUM185PE; test = sulforhodamine B; setting = 48 h, LAR subtype TNBC; quantity = GI50; result = 2.2 ± 0.7 nM
Molecule = COC(=O)C1=CO[C@@H](O)[C@@H]2C(CO)=CC[C@H]12; cell line = SK-N-SH; test = neuroprotection, MTT; setting = 0.3 µM, 24 h, added: 250 µM H2O2; quantity = viability; result = 57.8 ± 0.7%
Molecule = Cc1nc(N=Nc2ccc(S(=O)(=O)[O-])cc2S(=O)(=O)[O-])c(COP(=O)([O-])[O-])c(C=O)c1O.[Na+].[Na+].[Na+].[Na+]; cell line = U2OS; test = NAADP-evoked Ca2+ release; setting = 10 µM, 10 min pretreatment, added: NAADP 100 nM microinjected; how to read = baseline: NAADP alone; quantity = Ca2+ transient amplitude; result = 24.2 ± 2.1%
Molecule = RRRRRRRRGGTTLFF; cell line = mouse CD4 T cells; system = peptide; setting = concentration not given, 30 min preincubation, 96 h, added: anti-CD3/anti-CD28; how to read = baseline: control peptide; quantity = cell proliferation; result = decreased
Molecule = Cc1ccc(NS(=O)(=O)c2ccc3c(c2)C2OCCC2C(c2ccc(C(=O)C(C)C)cc2)N3)cc1C (centres unmarked); cell line = EU-1; test = western blot; setting = 1 µM; quantity = time to caspase and PARP cleavage; result = 8 h
Molecule = C/C1=C/C(=O)O[C@@H]2C[C@@H](CC[C@H](C)/C=C\C=C\CC1)O[C@@](O)([C@@H]1CSC(=O)N1)C2; cell line = LNCaP expressing wild-type Abi1; test = flow cytometry; setting = 0.2 µM, 2 h, added: Alexa Fluor hydrazide 25 µM, no PDGF; quantity = macropinocytic uptake; result = decreased
Molecule = CC(C)=CC[C@@H](O)C1=CC(=O)c2c(O)ccc(O)c2C1=O; cell line = NIH3T3 in HEY/NIH microtissues; test = fibroblast toxicity; setting = 168 h, chronic toxicity, unit not given; how to read = baseline: AC50 ATP over AC50 NanoLUC, day 7; quantity = therapeutic window; result = 1.61
Molecule = N.N.[Cl][Pt][Cl]; cell line = PC-3; test = trypan blue; setting = 48 h; quantity = GI50; result = 8000 ± 2500 nM
Molecule = CN[C@@H]1C[C@H]2O[C@@](C)([C@@H]1OC)n1c3ccccc3c3c4c(c5c6ccccc6n2c5c31)C(=O)NC4; cell line = MCF7; test = annexin V/PI; setting = 2.5 µM, 24 h; quantity = early apoptotic cells; result = 5.47%
Molecule = OCc1cc(C(O)CNCCCCCCOCCCCc2ccccc2)ccc1O (centres unmarked); cell line = U2OS; test = NAADP-evoked Ca2+ release; setting = 10 µM, 10 min pretreatment, added: NAADP 100 nM microinjected; how to read = baseline: NAADP alone; quantity = Ca2+ transient amplitude; result = 26.7 ± 7.2%
Molecule = NNC(=O)Cn1c2ccccc2c2cn[nH]c(=O)c21; cell line = MCF7; test = RT-PCR, refers to: P53; setting = 5 µM, 48 h, normalised to β-actin; how to read = baseline: untreated; quantity = fold change; result = 5.75
Molecule = [Met(O)35]Aβ42; cell line = rat primary hippocampal neurons; test = LDH release; setting = 10 µM, 48 h; how to read = baseline: medium control; quantity = viability decrease; result = 16 ± 2%
Molecule = CN(C)CCCn1cc(C2=C(c3c[nH]c4ccccc34)C(=O)NC2=O)c2ccccc21; cell line = rat lamina I NK1R neurons; system = spinal cord slices; setting = concentration not given, added: substance P; quantity = firing duration; result = 4.33 ± 0.82 min
Molecule = CC[C@H](C)[C@H](NC(=O)[C@H](CCCCN)NC(=O)[C@@H](NC(=O)[C@H](CCC(N)=O)NC(=O)[C@H](CCCNC(=N)N)NC(=O)[C@@H](N)CC(=O)O)[C@@H](C)CC)C(=O)N[C@@H](Cc1c[nH]c2ccccc12)C(=O)N[C@@H](Cc1ccccc1)C(=O)N[C@@H](CCC(N)=O)C(=O)N[C@@H](CC(N)=O)C(=O)N[C@@H](CCCNC(=N)N)C(=O)N[C@@H](CCCNC(=N)N)C(=O)N[C@@H](CCSC)C(=O)N[C@@H](CCCCN)C(=O)N[C@@H](Cc1c[nH]c2ccccc12)C(=O)N[C@@H](CCCCN)C(=O)N[C@@H](CCCCN)C(=O)N[C@H](C(=O)N[C@@H](C)C(=O)N[C@@H](CC(C)C)C(=O)N[C@@H](CC(=O)O)C(=O)N[C@@H](Cc1c[nH]c2ccccc12)C(=O)N[C@@H](CO)C(=O)N[C@@H](Cc1c[nH]c2ccccc12)C(=O)N[C@@H](CC(C)C)C(=O)N[C@@H](CCC(N)=O)C(=O)N[C@H](C(=O)N[C@@H](CCC(=O)O)C(=O)O)[C@@H](C)O)[C@@H](C)O; cell line = human PBMC; test = inhibitor; setting = concentration not given, 2 h, added: LPS 10 ng/mL; quantity = TNF-α production; result = inhibited
Molecule = CCCCCCCCOC(=O)c1ccccc1C(=O)OCCCCCCCC; cell line = mES-D3 cell; test = cardiomyocyte differentiation, RT-PCR, refers to: MHC; setting = 240 h; quantity = ID50; result = 60.1 ± 5.39 µg/mL (≈ 154 µM)

Excerpt of the above:
Molecule = C[C@H]1O[C@@H](O[C@H]2[C@@H](O)C[C@H](O[C@H]3[C@@H](O)C[C@H](O[C@H]4CC[C@@]5(C)[C@H](CC[C@@H]6[C@@H]5C[C@@H](O)[C@]5(C)[C@@H](C7=CC(=O)OC7)CC[C@]65O)C4)O[C@@H]3C)O[C@@H]2C)C[C@H](O)[C@@H]1O; cell line = NIH3T3 in HEY/NIH microtissues; test = fibroblast toxicity; setting = 168 h, chronic toxicity, unit not given; how to read = baseline: AC50 ATP over AC50 NanoLUC, day 7; quantity = therapeutic window; result = 0.449
Molecule = CC(C)=CCC/C(C)=C/Cc1c(O)cc(/C=C/c2cc(O)c3c(c2)C[C@@H]2C(C)(C)[C@H](O)[C@H](O)C[C@@]2(C)O3)cc1O; cell line = CHO NPC1-/- (M12); setting = concentration not given; how to read = baseline: wild-type CHO; quantity = antiproliferative activity change; result = no effect
Molecule = COC(=O)C1=CO[C@@H](O)[C@@H]2C(CO)=CC[C@H]12; cell line = SK-N-SH; test = neuroprotection, MTT; setting = 0.3 µM, 24 h, added: 250 µM H2O2; quantity = viability; result = 57.8 ± 0.7%
Molecule = CN1C(=CC=CC=CC2=[N+](CCCCCC(=O)NCCCC[C@H](NC(=O)[C@H](CCCCNC(=O)COCCOCCOCCNC(=O)[C@H](Cc3ccccc3)NC(=O)[C@H](CCCNC(=N)N)NC(=O)[C@@H]3CCCN3C(=O)[C@H](CC(N)=O)NC(=O)[C@@H]3CCCN3C(=O)[C@H](CO)NC(=O)[C@@H](N)CCCCN)NC(=O)COCCOCCOCCNC(=O)[C@H](CCC(=O)O)NC(=O)[C@H](CCCNC(=N)N)NC(=O)[C@@H]3CCCN3C(=O)[C@H](CCCCN)NC(=O)[C@H](Cc3c[nH]cn3)NC(=O)[C@H](CCCNC(=N)N)NC(=O)[C@@H](N)CCC(N)=O)C(N)=O)c3ccc4ccccc4c3C2(C)C)C(C)(C)c2c1ccc1ccccc21; cell line = OE33; test = flow cytometry; setting = 1 µM, 4 °C; quantity = association rate constant; result = 0.22 min⁻¹
